Measured values pooled from the literature.
“And” joins repeats or separate records; there may be more than shown. ± marks the error that the study gave.

| SMILES | target or system | test | test system | setting | scale | endpoint | value |
| --- | --- | --- | --- | --- | --- | --- | --- |
| CC[C@H](C)[C@H](NC(=O)[C@H](CCCCN)NC(=O)[C@H](CC(N)=O)NC(=O)CNC(=O)[C@@H](NC(=O)[C@H](C)NC(=O)[C@H](CCCNC(=N)N)NC(=O)[C@H](CC(C)C)NC(=O)[C@H](CCCCN)NC(=O)[C@H](CCCCN)NC(=O)[C@H](CCCCN)NC(=O)[C@H](C)NC(=O)[C@H](CCCCN)NC(=O)[C@@H]1CSSC[C@H](NC(=O)[C@H](CCCNC(=N)N)NC(=O)CN)C(=O)N[C@@H](CC(N)=O)C(=O)N[C@@H](CC(C)C)C(=O)N[C@@H](CC(C)C)C(=O)N1)C(C)C)C(=O)N[C@@H](CCCCN)C(=O)N[C@@H](CCC(=O)O)C(=O)N[C@H](C(=O)N[C@@H](CCCCN)C(=O)N[C@@H](CC(N)=O)C(=O)N[C@H](C(=O)N[C@H](C(=O)N[C@@H](Cc1ccccc1)C(=O)N[C@@H](CC(N)=O)C(=O)N[C@@H](CCCNC(=N)N)C(=O)O)C(C)C)C(C)C)[C@@H](C)CC | human erythrocytes |  |  | 40 µM, 30 min, 37 °C | baseline: Triton X-100 | hemolysis | 3.16 ± 0.67% |
| CC[C@H](C)[C@H](NC(=O)[C@H](C)NC(=O)[C@H](CCCCN)NC(=O)[C@H](CC(C)C)NC(=O)[C@@H](N)Cc1ccccc1)C(=O)N[C@@H](CCCCN)C(=O)N[C@@H](CCCCN)C(=O)N[C@@H](Cc1ccccc1)C(=O)NCC(=O)N[C@@H](CCCCN)C(=O)N[C@@H](CCC(=O)O)C(=O)N[C@@H](Cc1ccccc1)C(=O)N[C@@H](CCCCN)C(=O)N[C@@H](CCCCN)C(=O)N[C@H](C(=O)NCC(=O)N[C@@H](C)C(=O)N[C@@H](CCCCN)C(=O)N[C@@H](CC(C)C)C(=O)N[C@@H](CCCCN)C(=O)O)[C@@H](C)CC | HaCaT | cell growth or viability, MTT |  | 8 µg/mL |  | viability | 94.6% |
| CNC(=O)C[C@H](Cc1ccncc1)NC(=O)[C@@H](Cc1cccc(Br)c1)NC(=O)[C@@H](N)Cc1ccsc1 | Huh-7-ACE2 | CellTiter-Glo |  | 0.781 µM, 48 h, unit not given | baseline: DMSO | viability | 1.11 and 0.983 and 1.07 |
| CC[C@H](C)[C@H](NC(=O)[C@H](CCC(=O)O)NC(=O)[C@H](CCCNC(=N)N)NC(=O)[C@H](CC(C)C)NC(=O)[C@H](CCCCN)NC(=O)CNC(=O)[C@H](CC(C)C)NC(=O)[C@H](Cc1ccccc1)NC(=O)[C@H](CC(N)=O)NC(=O)[C@H](CCCCN)NC(=O)[C@H](C)NC(=O)[C@H](CC(C)C)NC(=O)CNC(=O)[C@H](CO)NC(=O)[C@@H](NC(=O)[C@@H](NC(=O)[C@H](CO)NC(=O)[C@H](CCCNC(=N)N)NC(=O)[C@H](Cc1c[nH]c2ccccc12)NC(=O)[C@H](Cc1ccccc1)NC(=O)[C@H](CCCNC(=N)N)NC(=O)CNC(=O)[C@H](Cc1ccccc1)NC(=O)CN)C(C)C)[C@@H](C)CC)C(=O)N[C@@H](CO)C(=O)N[C@@H](CCC(N)=O)C(=O)N[C@@H](CC(C)C)C(=O)N[C@@H](Cc1ccc(O)cc1)C(=O)O | HUVEC | cytotoxicity, MTT |  | 24 h, 37 °C |  | IC50 | 5.62 µM |
| O=c1n(CCNCCOS(=O)(=O)c2ccccc2)c(=O)n(S(=O)(=O)c2ccccc2)c(=O)n1S(=O)(=O)c1ccccc1 | HUVEC | cell growth or viability, MTT |  | 48 h |  | IC50 | 5.38 µg/mL |
| CC(=O)Oc1ccc(/C=C/C(=O)Oc2cc(C(F)(F)F)cc(C(F)(F)F)c2)cc1OC(C)=O | HaCaT | cell growth or viability, MTT |  | 24 h |  | CC50 | 94.8 µM |
| CC[C@H](C)[C@H](NC(=O)[C@H](C)NC(=O)[C@H](CCCCN)NC(=O)[C@H](CCCCN)NC(=O)[C@@H](N)CCCNC(=N)N)C(=O)N[C@@H](CCCCN)C(=O)N[C@@H](CC(C)C)C(=O)N[C@H](C(=O)N[C@@H](CCCCN)C(=O)N[C@@H](CCCCN)C(=O)N[C@@H](CC(C)C)C(=O)N[C@H](C(=O)N[C@@H](CCCCN)C(=O)N[C@@H](CCCCN)C(=O)N[C@@H](CC(C)C)C(=O)N[C@@H](CCCCN)C(=O)N[C@@H](CCCCN)C(=O)N[C@@H](C)C(=O)N[C@@H](CC(C)C)C(=O)N[C@@H](CCCCN)C(=O)O)C(C)C)C(C)C | HeLa | MTT |  | 32 mg/L | baseline: untreated | cell growth | 76.5% and 72.2% and 75.4% |
| O=C1NC2(CC2)COc2ncc(F)cc2[C@H]2COCCN2c2ccn3ncc1c3n2 |  |  | Sprague-Dawley rat, female, heart | oral, 5 mg/kg/day, 4 weeks dosing, end of recovery |  | organ-to-body weight ratio | 0.365 ± 0.031% |
| CC[C@H](C)[C@H](NC(=O)[C@@H](NC(=O)[C@H](CCCCN)NC(=O)[C@H](CCCCN)NC(=O)[C@@H](NC(=O)[C@H](Cc1c[nH]c2ccccc12)NC(=O)[C@H](CCCCN)NC(=O)[C@H](CCCCN)NC(=O)[C@H](CC(C)C)NC(=O)[C@H](CCCCN)NC(=O)[C@H](CCCCN)NC(=O)[C@@H](N)C(C)C)[C@@H](C)CC)C(C)C)C(N)=O | sheep red blood cells | 10% haemolysis |  | 1 h, 37 °C |  | minimum haemolytic concentration | > 256 µM |
| CNC(=O)C[C@H](Cc1ccc(F)cc1)NC(=O)[C@@H](Cc1ccc(Cl)cc1Cl)NC(=O)[C@H](N)Cc1ccccc1C#N | HEK-293T | LC-MS, digitonin-released cytosol |  | 10 µM, 4 h |  | cytosolic concentration | 17.7 µM and 8.4 µM and 15.9 µM |
| CC[C@H](C)[C@H](NC(=O)[C@H](CC(C)C)NC(=O)[C@H](CCCCN)NC(=O)[C@H](CCSC)NC(=O)[C@H](Cc1ccccc1)NC(=O)[C@H](C)NC(=O)[C@H](C)NC(=O)[C@@H](N)CCSC)C(=O)N[C@@H](CCC(N)=O)C(=O)N[C@@H](Cc1ccccc1)C(=O)N[C@@H](CC(C)C)C(=O)N[C@@H](C)C(=O)N[C@H](C(=O)N[C@@H](CCCCN)C(=O)NCC(=O)N[C@@H](CCC(N)=O)C(=O)N[C@@H](CCCCN)C(=O)N[C@@H](Cc1ccc(O)cc1)C(=O)N[C@H](C(=O)N[C@@H](CO)C(=O)N[C@@H](CC(C)C)C(=O)N[C@@H](C)C(=O)N[C@@H](Cc1c[nH]c2ccccc12)C(=O)N[C@@H](CCCCN)C(N)=O)C(C)C)[C@@H](C)O | human erythrocytes | hemolysis |  | pH 7.2 | baseline: water complete hemolysis | HD50 | 150 µg/mL |
| CCN(CCCCOc1ccc(CCC(=O)N2CCC(Cc3ccccc3)CC2)cc1OC)Cc1ccccc1 | Caco-2 monolayer |  |  | 20 µM, 120 min |  | efflux ratio | 1.45 |
| COc1cc(/C=C/C(=O)O)ccc1O | HaCaT | cell growth or viability, MTT |  | 24 h |  | CC50 | > 250 µM |
| CNC(=O)C[C@H](Cc1ccc(F)cc1)NC(=O)[C@@H](Cc1ccc(Cl)cc1Cl)NC(=O)[C@H](N)Cc1ccccc1[N+](=O)[O-] | Huh-7-ACE2 | CellTiter-Glo |  | 0.391 µM, 48 h, unit not given | baseline: DMSO | viability | 0.999 and 1.01 |
| CC1CCC(C(C)(C)C(=O)Nc2ccc(Oc3ccccc3)cc2)CC1 (stereo not shown) | BaF3 | cell growth or viability, ATP luminescence |  | 72 h |  | IC50 | > 12.5 µM |
| CCCCCCCCC=CCCCCCCCCNC(=O)C(N)Cc1ccc(OP(=O)(O)COC(CO)Cn2ccc(N)nc2=O)cc1 (stereo not shown) | HFF | cell growth or viability, ATP luminescence |  | 14 days |  | CC50 | 0.2 µM |

A few entries again:
| SMILES | target or system | test | test system | setting | scale | endpoint | value |
| --- | --- | --- | --- | --- | --- | --- | --- |
| CCCCCCCCC=CCCCCCCCCNC(=O)C(N)Cc1ccc(OP(=O)(O)COC(CO)Cn2ccc(N)nc2=O)cc1 (stereo not shown) | HFF | cell growth or viability, ATP luminescence |  | 14 days |  | CC50 | 0.2 µM |
